Assay results from different studies.
Numbered parts are unrelated; each lists some results of a single study. “And” joins repeats or separate records; there may be more than shown.
Chain of UniProt P37023 (whole entry, looked up): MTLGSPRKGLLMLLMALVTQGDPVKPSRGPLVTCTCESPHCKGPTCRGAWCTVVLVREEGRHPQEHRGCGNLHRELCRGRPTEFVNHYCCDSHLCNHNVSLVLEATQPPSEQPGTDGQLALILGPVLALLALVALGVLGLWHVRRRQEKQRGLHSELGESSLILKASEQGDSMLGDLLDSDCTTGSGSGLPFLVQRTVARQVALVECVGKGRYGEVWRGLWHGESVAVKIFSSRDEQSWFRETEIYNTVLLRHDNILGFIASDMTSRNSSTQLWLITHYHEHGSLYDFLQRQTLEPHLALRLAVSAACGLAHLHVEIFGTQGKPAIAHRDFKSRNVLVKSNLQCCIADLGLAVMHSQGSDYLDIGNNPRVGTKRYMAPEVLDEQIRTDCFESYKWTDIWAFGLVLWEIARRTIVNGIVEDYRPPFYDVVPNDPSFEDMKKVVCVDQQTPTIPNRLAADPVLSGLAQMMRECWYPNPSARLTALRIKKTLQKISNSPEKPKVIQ
Chain of UniProt Q9P0L2 (whole entry, looked up): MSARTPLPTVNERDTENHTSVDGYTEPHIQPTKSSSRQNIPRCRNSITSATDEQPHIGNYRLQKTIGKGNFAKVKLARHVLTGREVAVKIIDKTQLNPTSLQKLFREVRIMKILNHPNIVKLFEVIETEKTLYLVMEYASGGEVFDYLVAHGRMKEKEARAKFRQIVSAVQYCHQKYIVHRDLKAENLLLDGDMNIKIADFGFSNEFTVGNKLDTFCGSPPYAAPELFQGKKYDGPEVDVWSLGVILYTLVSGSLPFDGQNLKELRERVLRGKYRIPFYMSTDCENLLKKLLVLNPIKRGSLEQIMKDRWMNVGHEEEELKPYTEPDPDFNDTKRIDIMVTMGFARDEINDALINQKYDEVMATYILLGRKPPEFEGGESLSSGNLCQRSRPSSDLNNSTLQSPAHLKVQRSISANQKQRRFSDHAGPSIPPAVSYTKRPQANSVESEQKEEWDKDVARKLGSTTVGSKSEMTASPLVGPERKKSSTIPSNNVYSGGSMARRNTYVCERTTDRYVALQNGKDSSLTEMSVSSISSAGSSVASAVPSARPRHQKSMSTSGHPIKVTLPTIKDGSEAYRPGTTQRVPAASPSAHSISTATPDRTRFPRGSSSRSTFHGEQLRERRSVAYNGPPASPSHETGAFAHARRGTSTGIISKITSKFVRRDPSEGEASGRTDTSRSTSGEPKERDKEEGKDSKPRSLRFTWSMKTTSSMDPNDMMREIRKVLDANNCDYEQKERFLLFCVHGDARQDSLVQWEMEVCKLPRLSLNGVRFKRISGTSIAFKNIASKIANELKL
Chain of UniProt P11309 (whole entry, looked up): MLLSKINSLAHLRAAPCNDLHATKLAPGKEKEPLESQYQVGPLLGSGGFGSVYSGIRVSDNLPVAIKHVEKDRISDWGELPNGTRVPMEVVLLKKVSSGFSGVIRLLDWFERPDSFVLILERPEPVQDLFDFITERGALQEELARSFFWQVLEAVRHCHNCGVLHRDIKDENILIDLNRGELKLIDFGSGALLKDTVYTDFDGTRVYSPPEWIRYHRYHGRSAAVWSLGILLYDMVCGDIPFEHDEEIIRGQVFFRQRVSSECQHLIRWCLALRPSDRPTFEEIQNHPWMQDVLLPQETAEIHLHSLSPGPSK
Chain of UniProt Q00535 (whole entry, looked up): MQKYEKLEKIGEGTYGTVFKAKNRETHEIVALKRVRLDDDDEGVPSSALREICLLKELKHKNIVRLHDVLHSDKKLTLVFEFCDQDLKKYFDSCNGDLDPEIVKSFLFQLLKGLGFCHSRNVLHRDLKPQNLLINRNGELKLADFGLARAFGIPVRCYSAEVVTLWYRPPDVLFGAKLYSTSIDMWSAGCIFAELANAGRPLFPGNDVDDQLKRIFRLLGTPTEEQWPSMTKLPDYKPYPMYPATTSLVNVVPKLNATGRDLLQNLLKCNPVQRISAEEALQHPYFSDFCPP
Chain of UniProt P00519 (whole entry, unmodified, looked up): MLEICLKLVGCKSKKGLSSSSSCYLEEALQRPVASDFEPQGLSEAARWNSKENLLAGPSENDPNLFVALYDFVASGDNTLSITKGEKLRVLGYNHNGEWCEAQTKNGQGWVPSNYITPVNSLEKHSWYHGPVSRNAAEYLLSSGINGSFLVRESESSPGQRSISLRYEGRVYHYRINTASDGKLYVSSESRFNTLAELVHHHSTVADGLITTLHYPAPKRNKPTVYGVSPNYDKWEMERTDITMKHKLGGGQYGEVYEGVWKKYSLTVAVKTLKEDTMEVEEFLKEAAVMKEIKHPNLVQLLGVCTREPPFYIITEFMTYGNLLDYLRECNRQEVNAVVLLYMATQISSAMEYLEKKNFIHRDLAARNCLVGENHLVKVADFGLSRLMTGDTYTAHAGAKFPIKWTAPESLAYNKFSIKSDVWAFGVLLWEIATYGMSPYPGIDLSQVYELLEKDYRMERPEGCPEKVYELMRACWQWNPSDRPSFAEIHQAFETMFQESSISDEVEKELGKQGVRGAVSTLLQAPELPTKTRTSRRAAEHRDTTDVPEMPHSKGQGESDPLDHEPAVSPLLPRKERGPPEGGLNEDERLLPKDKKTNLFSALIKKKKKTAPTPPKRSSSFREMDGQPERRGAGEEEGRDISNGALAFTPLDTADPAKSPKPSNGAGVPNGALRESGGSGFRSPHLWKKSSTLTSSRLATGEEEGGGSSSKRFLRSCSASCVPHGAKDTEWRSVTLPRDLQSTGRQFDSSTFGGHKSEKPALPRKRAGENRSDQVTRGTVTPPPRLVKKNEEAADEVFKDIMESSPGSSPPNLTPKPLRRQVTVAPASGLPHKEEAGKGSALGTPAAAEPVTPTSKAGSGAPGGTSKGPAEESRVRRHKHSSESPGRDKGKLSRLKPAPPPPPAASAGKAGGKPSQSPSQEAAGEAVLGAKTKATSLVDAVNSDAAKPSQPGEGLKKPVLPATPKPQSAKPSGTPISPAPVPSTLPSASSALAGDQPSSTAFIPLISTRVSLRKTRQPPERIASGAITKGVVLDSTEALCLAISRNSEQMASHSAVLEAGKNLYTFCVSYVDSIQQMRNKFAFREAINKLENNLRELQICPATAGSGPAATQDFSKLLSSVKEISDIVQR
Chain of UniProt P07332 (whole entry, looked up): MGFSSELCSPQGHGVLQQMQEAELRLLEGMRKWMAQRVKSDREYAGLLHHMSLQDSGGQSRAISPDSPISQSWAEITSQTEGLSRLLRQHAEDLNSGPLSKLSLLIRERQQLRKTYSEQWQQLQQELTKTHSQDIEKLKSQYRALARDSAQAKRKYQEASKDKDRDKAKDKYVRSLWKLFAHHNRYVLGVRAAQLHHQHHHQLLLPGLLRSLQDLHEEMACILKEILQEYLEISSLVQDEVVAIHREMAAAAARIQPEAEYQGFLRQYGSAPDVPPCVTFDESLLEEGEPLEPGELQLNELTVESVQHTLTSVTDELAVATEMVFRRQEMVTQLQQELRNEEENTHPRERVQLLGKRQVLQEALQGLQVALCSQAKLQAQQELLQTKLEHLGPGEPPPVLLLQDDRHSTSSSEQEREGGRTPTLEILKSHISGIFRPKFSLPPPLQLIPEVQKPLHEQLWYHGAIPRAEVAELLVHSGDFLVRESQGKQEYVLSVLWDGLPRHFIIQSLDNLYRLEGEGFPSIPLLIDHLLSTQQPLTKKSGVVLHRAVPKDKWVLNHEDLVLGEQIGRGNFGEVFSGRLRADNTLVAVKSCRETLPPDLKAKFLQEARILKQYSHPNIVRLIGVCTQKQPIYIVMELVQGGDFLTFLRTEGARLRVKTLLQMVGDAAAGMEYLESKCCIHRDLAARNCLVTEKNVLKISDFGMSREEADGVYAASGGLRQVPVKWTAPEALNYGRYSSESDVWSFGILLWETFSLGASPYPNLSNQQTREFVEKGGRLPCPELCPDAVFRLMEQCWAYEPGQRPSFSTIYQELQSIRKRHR

Study 1 — cell line: A-375; tested at: 100 µM; time: 36 h
| Compound | viability [%] |
| --- | --- |
| CCOC(=O)[C@H](CCc1ccccc1)N[C@H]1CCc2ccccc2N(CC(=O)O)C1=O | 98 |
| Nc1nc(Cl)nc2c1ncn2[C@@H]1O[C@H](CO)[C@@H](O)[C@@H]1F | 21.3 |
| CC1=CC(=O)c2ccccc2C1=O | -0.112 |
| CC(=O)N(O)CCCCCNC(=O)CCC(=O)N(O)CCCCCNC(=O)CCC(=O)N(O)CCCCCN | 40.9 |
| O[C@H](CNC[C@@H](O)[C@H]1CCc2cc(F)ccc2O1)[C@@H]1CCc2cc(F)ccc2O1 | -2.69 |
| COc1ccc(OC)c(C(O)CNC(=O)CN)c1 (centres unmarked) | 121 |
| NC(=O)N1c2ccccc2CCc2ccccc21 | 81.1 |
| CC(=O)Nc1ccccc1 | 134 |
| O=C(c1cc(Cc2n[nH]c(=O)c3ccccc23)ccc1F)N1CCN(C(=O)C2CC2)CC1 | 79.4 |

Study 2 — SMILES: Clc1ccc(Nc2nnc(Cc3ccncc3)c3ccccc23)cc1; effect on: enzyme activity; mode: inhibitor; tested at: 0.5 µM; reference: control
| target | remaining activity [%] |
| --- | --- |
| PIM1 (Homo sapiens, UniProt P11309) | 102 |
| Cyclin-dependent kinase 5, with p35 (CDK5, Homo sapiens, UniProt Q00535) | 97.2 |
| ACVRL1 (Homo sapiens, UniProt P37023) | 98.5 |
| MARK1 (Homo sapiens, UniProt Q9P0L2) | 124 |
| FES (Homo sapiens, UniProt P07332) | 94.7 |

Study 3 — cell line: mouse MPNST tumor cells; method: high-content immunofluorescence imaging; item: nuclear SOX9; tested at: 10 µM; time: 12 h; notes: mean of 2 replicates; reference: DMSO control; direction: higher = more nuclear SOX9
| Structure (SMILES) | nuclear SOX9 intensity |
| --- | --- |
| CCn1c(=O)n(C2=C(CO)CN(CC3CCCCCCC3)CC2)c2ccccc21 | 142 % of DMSO |
| c1ccc(CNc2ncnc3nc[nH]c23)cc1 | 118 % of DMSO |
| Fc1ccc(C(c2ccc(F)cc2)N2CCN(C/C=C/c3ccccc3)CC2)cc1 | 132 % of DMSO and 163 % of DMSO |
| Cc1ccc2c(c1)c1c(n2CCc2ccc(C)nc2)CCN(C)C1 | 120 % of DMSO |
| COc1ccccc1OCC(O)CO (centres unmarked) | 95.2 % of DMSO |
| N[C@@H]1CONC1=O | 105 % of DMSO and 128 % of DMSO |
| O=C(CCCc1ccc(-c2ccccc2F)cc1)Nc1ccc(O)cc1 | 161 % of DMSO |
| CC(=O)OCC(=O)[C@@]1(O)[C@H](C)C[C@H]2[C@@H]3CCC4=CC(=O)C=C[C@]4(C)[C@@]3(F)[C@@H](O)C[C@@]21C | 74.1 % of DMSO |

Single results of other studies
| Structure (SMILES) | target | assay | conditions | scale | endpoint | value |
| --- | --- | --- | --- | --- | --- | --- |
| COc1ccc2c(c1)O[C@@H](c1ccc(OC)c(OC)c1)C[C@H]2NC(=O)C1(c2ccc3c(c2)OC(F)(F)O3)CC1 (single isomer, unassigned) | Tyrosine-protein kinase ABL1 (ABL1, Homo sapiens, UniProt P00519, F317I) | KINOMEscan | 1 µM, F317I mutant, nonphosphorylated | reference: control | remaining binding | 100% |
